Assay results from different studies.
Numbered parts are unrelated; each lists some results of a single study. Values joined by “and” are separate records of one study, mostly repeats; a detail may differ.

Set 1 — cell line: mouse MPNST tumor cells; method: high-content immunofluorescence imaging; item: nuclear SOX9; tested at: 10 µM; time: 12 h; setting: mean of 2 replicates; reference: DMSO control; reading: higher = more nuclear SOX9
Structure (SMILES) | nuclear SOX9 intensity
COc1ccc(CCN2CCN(CCCc3ccccc3)CC2)cc1OC | 94.7 % of DMSO
C=C(CC)C(=O)c1ccc(OCC(=O)O)c(Cl)c1Cl | 97.6 % of DMSO
NC(Cc1cc(I)c(Oc2cc(I)c(O)c(I)c2)c(I)c1)C(=O)O (centres unmarked) | 84 % of DMSO
COc1ccc(Nc2ncnc3ccc(OC)cc23)cc1 | 89.1 % of DMSO
CCC(NC(C)C)C(O)c1ccc(O)c(O)c1 (centres unmarked) | 102 % of DMSO
C/C(=C\C(=O)Nc1ccccc1C(=O)O)c1ccc2ccccc2c1 | 105 % of DMSO
c1ccc2c(c1)Cc1c(Nc3ccc4c(c3)OCCO4)n[nH]c1-2 | 169 % of DMSO
Cc1cc([N+](=O)[O-])ccc1NS(=O)(=O)c1cc(Cl)ccc1Cl | 106 % of DMSO
Cc1cc(NC(=O)C2=C(O)c3ccccc3S(=O)(=O)N2C)no1 | 104 % of DMSO
O=C(NC1CCOCC1)c1ccc(-c2cc(-c3c[nH]nc3-c3ccccn3)ccn2)cc1 | 63.7 % of DMSO
CN(C(=O)CN(CCO)CC(=O)N(C)C(C)(C)Cc1ccccc1)C(C)(C)Cc1ccccc1 | 141 % of DMSO
O=c1cc(-c2ccc([N+](=O)[O-])cc2)nc2c(-c3ccc(Cl)cc3)c(Cc3ccccc3)[nH]n12 | 117 % of DMSO
Cc1cccc(Oc2cnc(=O)[nH]c2)c1 | 104 % of DMSO
O=C(/C=C/c1ccccc1)NC(NC(=S)Nc1cccc2cccnc12)C(Cl)(Cl)Cl (centres unmarked) | 95.2 % of DMSO

Set 2 — sample: hydrocarbon/water; pH: 7.4
SMILES | logD
CC(C)C[C@@H]1NC(=O)[C@H](Cc2ccc(O)cc2)NC(=O)[C@H]2CCCN2C(=O)[C@H](CC(C)C)NC(=O)[C@H](CC2CCCCC2)NC(=O)[C@@H](CC(C)C)NC1=O | 0.0932
CCN1CC(=O)N[C@@H](CC(C)C)C(=O)N2CCC[C@@H]2C(=O)N(C)[C@@H](C)C(=O)N[C@@H](CC2CCCCC2)C(=O)N(C)[C@@H](C)C(=O)N[C@@H](CC(C)C)C(=O)N(C)Cc2cn(nn2)CC(=O)N[C@@H](CC(C)C)C1=O | 0.111
CCCCCN1CC(=O)NC(CC(C)C)C(=O)N(C)C(C)C(=O)NC(C)C(=O)N2CCCC2C(=O)N(CCCOC(C)C)CC(=O)NC(CC(C)C)C(=O)N(C)C(C)C(=O)NC(CC(C)C)C(=O)N2CCCC2C1=O (centres unmarked) | 2.55
CCCCCN1CC(=O)N[C@@H](C)C(=O)N2CCC[C@@H]2C(=O)N(C)[C@@H](CC(C)C)C(=O)N[C@@H](C)C(=O)N(CCCOC(C)C)CC(=O)N[C@@H](CC(C)C)C(=O)N2CCC[C@@H]2C(=O)N(C)[C@@H](CC(C)C)C(=O)N[C@@H](C)C1=O | 1.66

Set 3 — cell line: NCI-H446; time: 5 days; reference: DMSO
SMILES: CCC[C@H]1NC(=O)[C@H](Cc2cc(Cl)ccc2-c2cnn(C)c2)N(C)C(=O)[C@H](CC(C)C)NC(=O)[C@@H](N(C)C(=O)[C@H](CCCCN2CCOCC2)NC(=O)[C@@H](c2cccnc2)C2CCCCC2)CCCCNC1=O
assay | setting | cell growth
Vi-Cell counting | 371 nM, added: Myt1 inhibitor 1000 nM | 42.6% and 52.2%
cell counting | 13.7 nM | 87.4% and 93.1%
cell counting | 1.11 µM | 83.1% and 78.3%
cell counting | 124 nM | 89.5% and 77.3%
Vi-Cell counting | 10 µM, added: Myt1 inhibitor 1000 nM | 6.62% and 7.56%
cell counting | 4.57 nM | 81.1% and 86%
cell counting | 511 pM | 95.4%
Vi-Cell counting | 41.1 nM, added: Myt1 inhibitor 1000 nM | 69.4% and 57.1%

Set 4 — organism: Sarcocystis neurona; effect on: parasite growth; tested at: 10 µM; time: 96 h; setting: first screen
Structure (SMILES) | inhibition
COc1c2occc2cc2ccc(=O)oc12 | -6.6%
COc1ccccc1N1CCN(CC(O)COc2cccc3ccccc23)CC1 (centres unmarked) | 12.2%
COc1ccccc1OCC(O)COC(N)=O (centres unmarked) | -9.4%
C[C@](N)(Cc1ccc(O)c(O)c1)C(=O)O | -17.2%
CC(=O)OCC[N+](C)(C)C | -14.4%
O=C1C(CC[S+]([O-])c2ccccc2)C(=O)N(c2ccccc2)N1c1ccccc1 (centres unmarked) | -12.9%
O=C1CCC(N2C(=O)c3ccccc3C2=O)C(=O)N1 (centres unmarked) | -16.4%
O=C(O)CCc1nc(-c2ccccc2)c(-c2ccccc2)o1 | -10.7%
Nc1nc(=O)c2nc(CNc3ccc(C(=O)N[C@@H](CCC(=O)O)C(=O)O)cc3)cnc2[nH]1 | -27.9%

A few entries again (set 4):
Structure (SMILES) | inhibition
O=C(O)CCc1nc(-c2ccccc2)c(-c2ccccc2)o1 | -10.7%
O=C1CCC(N2C(=O)c3ccccc3C2=O)C(=O)N1 (centres unmarked) | -16.4%
